Experimental data collected from several papers.
Compare with care: the assays were run in different laboratories.
Partner: itself
B1: BTK 1-171 (Homo sapiens, UniProt Q06187); sequence looked up; chain MAAVILESIFLKRSQQKKKTSPLNFKKRLFLLTVHKLSYYEYDFERGRRGSKKGSIDVEKITCVETVVPEKNPPPERQIPRRGEESSEMEQISIIERFPYPFQVVYDEGPLYVFSPTEELRKRWIHQLKNVIRYNSDLVQKYHPCFWIDGQYLCCSQTAKNAMGCQILENR
B2: TOP2 C180A/C731A/Q1135C (Saccharomyces cerevisiae, UniProt P06786); AlexaFluor 488/546 labels; sequence looked up; chain MSTEPVSASDKYQKISQLEHILKRPDTYIGSVETQEQLQWIYDEETDCMIEKNVTIVPGLFKIFDEILVNAADNKVRDPSMKRIDVNIHAEEHTIEVKNDGKGIPIEIHNKENIYIPEMIFGHLLTSSNYDDDEKKVTGGRNGYGAKLCNIFSTEFILETADLNVGQKYVQKWENNMSIAHPPKITSYKKGPSYTKVTFKPDLTRFGMKELDNDILGVMRRRVYDINGSVRDINVYLNGKSLKIRNFKNYVELYLKSLEKKRQLDNGEDGAAKSDIPTILYERINNRWEVAFAVSDISFQQISFVNSIATTMGGTHVNYITDQIVKKISEILKKKKKKSVKSFQIKNNMFIFINCLIENPAFTSQTKEQLTTRVKDFGSRCEIPLEYINKIMKTDLATRMFEIADANEENALKKSDGTRKSRITNYPKLEDANKAGTKEGYKCTLVLTEGDSALSLAVAGLAVVGRDYYGCYPLRGKMLNVREASADQILKNAEIQAIKKIMGLQHRKKYEDTKSLRYGHLMIMTDQDHDGSHIKGLIINFLESSFPGLLDIQGFLLEFITPIIKVSITKPTKNTIAFYNMPDYEKWREEESHKFTWKQKYYKGLGTSLAQEVREYFSNLDRHLKIFHSLQGNDKDYIDLAFSKKKADDRKEWLRQYEPGTVLDPTLKEIPISDFINKELILFSLADNIRSIPNVLDGFKPGQRKVLYGCFKKNLKSELKVAQLAPYVSEATAYHHGEQSLAQTIIGLAQNFVGSNNIYLLLPNGAFGTRATGGKDAAAARYIYTELNKLTRKIFHPADDPLYKYIQEDEKTVEPEWYLPILPMILVNGAEGIGTGWSTYIPPFNPLEIIKNIRHLMNDEELEQMHPWFRGWTGTIEEIEPLRYRMYGRIEQIGDNVLEITELPARTWTSTIKEYLLLGLSGNDKIKPWIKDMEEQHDDNIKFIITLSPEEMAKTRKIGFYERFKLISPISLMNMVAFDPHGKIKKYNSVNEILSEFYYVRLEYYQKRKDHMSERLQWEVEKYSFQVKFIKMIIEKELTVTNKPRNAIIQELENLGFPRFNKEGKPYYGSPNDEIAEQINDVKGATSDEEDEESSHEDTENVINGPEELYGTYEYLLGMRIWSLTKERYQKLLKCKQEKETELENLLKLSAKDIWNTDLKAFEVGYQEFLQRDAEARGGNVPNKGSKTKGKGKRKLVDDEDYDPSKKNKKSTARKGKKIKLEDKNFERILLEQKLVTKSKAPTKIKKEKTPSVSETKTEEEENAPSSTSSSSIFDIKKEDKDEGELSKISNKFKKISTIFDKMGSTSATSKENTPEQDDVATKKNQTTAKKTAVKPKLAKKPVRKQQKVVELSGESDLEILDSYTDREDSNKDEDDAIPQRSRRQRSSRAASVPKKSYVETLELSDDSFIEDDEEENQGSDVSFNEED
B3: Gm4951 C235A (Mus musculus, UniProt Q3UED7); sequence looked up; chain MGQLFSSRRSEDQDLSSSFIEYLKECEKGINIIPHEIITSIEINMKKGNIQEVNSTVRDMLREIDNTPLNVALTGETGSGKSSFINTLRGIGHEEGGAAHTGVTDKTKERHPYEHPKMPNVVFWDLPGTGSEDFQPKTYLEKMKFYEYDFFIIISATRFKKNDIDLAKAIGIMKKEFYFVRTQVDSDLRNEEDFKPQTFDREKVLQDIRLNCVNTFRENGIAEPPIFLISNKNVAHYDFPVLMDKLISDLPVFKRQNFMFSLPNITDSVIEKKRNFLRWKTWLEGFADGLLSFFLESDLETLEKSMKFYRTVFGVDDASLQRLARAWEIDQVDQVRAMIKSPAVFTPTDEETIQERLSRYNQEFCLANGYLLPKNHCREILYLKLYFLDMVTEDAKTLLKEICLRN
B4: VANGL1 H340A/Y345A/E349A (Homo sapiens, UniProt Q8TAA9-1); sequence looked up; chain MDTESTYSGYSYYSSHSKKSHRQGERTRERHKSPRNKDGRGSEKSVTIQPPTGEPLLGNDSTRTEEVQDDNWGETTTAITGTSEHSISQEDIARISKDMEDSVGLDCKRYLGLTVASFLGLLVFLTPIAFILLPPILWRDELEPCGTICEGLFISMAFKLLILLIGTWALFFRKRRADMPRVFVFRALLLVLIFLFVVSYWLFYGVRILDSRDRNYQGIVQYAVSLVDALLFIHYLAIVLLELRQLQPMFTLQVVRSTDGESRFYSLGHLSIQRAALVVLENYYKDFTIYNPNLLTASKFRAAKHMAGLKVYNVDGPSNNATGQSRAMIAAAARRRDSSANELYAEEAAHERRVKKRKARLVVAVEEAFIHIQRLQAEEQQKAPGEVMDPREAAQAIFPSMARALQKYLRITRQQNYHSMESILQHLAFCITNGMTPKAFLERYLSAGPTLQYDKDRWLSTQWRLVSDEAVTNGLRDGIVFVLKCLDFSLVVNVKKIPFIILSEEFIDPKSHKFVLRLQSETSV
B5: ddrC L131M/L184M (Deinococcus radiodurans, UniProt Q9RYE6); selenomethionine; sequence looked up; chain MKNAPLTLNFGSVRLPVSADGLLHAPTAQQQLGLTQSWEAALVEHGLPETYRDFGAGPEAAVSVPDFVALAFALDTPEARRWQKRARELLARAMQGDVRVAAQIAERNPEPDARRWLAARLESTGARRELMATVARHGGEGRVYGQLGSISNRTVLGKDSASVRQERGVKATRDGLTSAELLRMAYIDTVTARAIQESEARGNAAILTLHEQVARSERQSWERAGQVQRVG
B6: Rela 19-304 (Mus musculus, UniProt Q04207); sequence looked up; chain PYVEIIEQPKQRGMRFRYKCEGRSAGSIPGERSTDTTKTHPTIKINGYTGPGTVRISLVTKDPPHRPHPHELVGKDCRDGYYEADLCPDRSIHSFQNLGIQCVKKRDLEQAISQRIQTNNNPFHVPIEEQRGDYDLNAVRLCFQVTVRDPAGRPLLLTPVLSHPIFDNRAPNTAELKICRVNRNSGSCLGGDEIFLLCDKVQKEDIEVYFTGPGWEARGSFSQADVHRQVAIVFRTPPYADPSLQAPVRVSMQLRRPSDRELSEPMEFQYLPDTDDRHRIEEKRKR
B7: dlg1 1-97 Y18G (Drosophila melanogaster, UniProt P31007); sequence looked up; chain MPVKKQEAHRALELLEDGHARLSEPQDRALRIAIERVIRIFKSRLFQALLDIQEFYELTLLDDSKSIQQKTAETLQIATKWEKDGQAVKIADFIKSS
B8: SPOP V51E (Homo sapiens, UniProt O43791); sequence looked up; chain MSRVPSPPPPAEMSSGPVAESWCYTQIKVVKFSYMWTINNFSFCREEMGEEIKSSTFSSGANDKLKWCLRVNPKGLDEESKDYLSLYLLLVSCPKSEVRAKFKFSILNAKGEETKAMESQRAYRFVQGKDWGFKKFIRRDFLLDEANGLLPDDKLTLFCEVSVVQDSVNISGQNTMNMVKVPECRLADELGGLWENSRFTDCCLCVAGQEFQAHKAILAARSPVFSAMFEHEMEESKKNRVEINDVEPEVFKEMMCFIYTGKAPNLDKMADDLLAAADKYALERLKVMCEDALCSNLSVENAAEILILADLHSADQLKTQAVDFINYHASDVLETSGWKSMVVSHPHLVAEAYRSLASAQCPFLGPPRKRLKQS
B9: HELLS 1-460 (Homo sapiens, UniProt Q9NRZ9); sequence looked up; chain MPAERPAGSGGSEAPAMVEQLDTAVITPAMLEEEEQLEAAGLERERKMLEKARMSWDRESTEIRYRRLQHLLEKSNIYSKFLLTKMEQQQLEEQKKKEKLERKKESLKVKKGKNSIDASEEKPVMRKKRGREDESYNISEVMSKEEILSVAKKNKKENEDENSSSTNLCVEDLQKNKDSNSIIKDRLSETVRQNTKFFFDPVRKCNGQPVPFQQPKHFTGGVMRWYQVEGMEWLRMLWENGINGILADEMGLGKTVQCIATIALMIQRGVPGPFLVCGPLSTLPNWMAEFKRFTPDIPTMLYHGTQEERQKLVRNIYKRKGTLQIHPVVITSFEIAMRDRNALQHCYWKYLIVDEGHRIKNMKCRLIRELKRFNADNKLLLTGTPLQNNLSELWSLLNFLLPDVFDDLKSFESWFDITSLSETAEDIIAKEREQNVLHMLHQILTPFLLRRLKSDVALEV
B10: SPOP M117V (Homo sapiens, UniProt O43791); sequence looked up; chain MSRVPSPPPPAEMSSGPVAESWCYTQIKVVKFSYMWTINNFSFCREEMGEVIKSSTFSSGANDKLKWCLRVNPKGLDEESKDYLSLYLLLVSCPKSEVRAKFKFSILNAKGEETKAVESQRAYRFVQGKDWGFKKFIRRDFLLDEANGLLPDDKLTLFCEVSVVQDSVNISGQNTMNMVKVPECRLADELGGLWENSRFTDCCLCVAGQEFQAHKAILAARSPVFSAMFEHEMEESKKNRVEINDVEPEVFKEMMCFIYTGKAPNLDKMADDLLAAADKYALERLKVMCEDALCSNLSVENAAEILILADLHSADQLKTQAVDFINYHASDVLETSGWKSMVVSHPHLVAEAYRSLASAQCPFLGPPRKRLKQS
B11: Transcriptional regulator (NtrC family) 374-442 (Aquifex aeolicus, UniProt O66551); sequence looked up; chain LKEKSWRDLSYLLKIKELKEAKKEFEKIFIEEKLREYDYDLKRTAEEIGIDLSNLYRKIKSLNIRVKSS
B12: NINJ1 x (Homo sapiens, UniProt Q92982); sequence looked up; chain MDSGTEEYELNGGLPPGTPGSPDASPARWGWRHGPINVNHYASKKSAAESMLDIALLMANASQLKAVVEQGPSFAYYTTLVTLISISLVLQIVVGVLLIVLVKYDLNNPAKHAKLDQLNNAATILVFIIVVVNIFITAFGVQKPLMDMAPQQ
B13: ftsZ (Staphylococcus aureus, UniProt P0A031); sequence looked up; chain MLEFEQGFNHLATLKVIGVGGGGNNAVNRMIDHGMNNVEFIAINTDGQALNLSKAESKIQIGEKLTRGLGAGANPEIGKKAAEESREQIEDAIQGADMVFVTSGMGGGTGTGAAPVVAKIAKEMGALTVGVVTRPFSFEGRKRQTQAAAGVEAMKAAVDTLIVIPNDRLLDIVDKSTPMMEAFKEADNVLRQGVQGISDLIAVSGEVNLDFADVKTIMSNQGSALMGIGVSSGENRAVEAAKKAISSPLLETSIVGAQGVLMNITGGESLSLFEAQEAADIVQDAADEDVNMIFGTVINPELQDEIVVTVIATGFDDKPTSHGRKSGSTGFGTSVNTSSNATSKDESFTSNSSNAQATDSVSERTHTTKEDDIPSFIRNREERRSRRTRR
Chain of UniProt O94687 (whole entry, looked up): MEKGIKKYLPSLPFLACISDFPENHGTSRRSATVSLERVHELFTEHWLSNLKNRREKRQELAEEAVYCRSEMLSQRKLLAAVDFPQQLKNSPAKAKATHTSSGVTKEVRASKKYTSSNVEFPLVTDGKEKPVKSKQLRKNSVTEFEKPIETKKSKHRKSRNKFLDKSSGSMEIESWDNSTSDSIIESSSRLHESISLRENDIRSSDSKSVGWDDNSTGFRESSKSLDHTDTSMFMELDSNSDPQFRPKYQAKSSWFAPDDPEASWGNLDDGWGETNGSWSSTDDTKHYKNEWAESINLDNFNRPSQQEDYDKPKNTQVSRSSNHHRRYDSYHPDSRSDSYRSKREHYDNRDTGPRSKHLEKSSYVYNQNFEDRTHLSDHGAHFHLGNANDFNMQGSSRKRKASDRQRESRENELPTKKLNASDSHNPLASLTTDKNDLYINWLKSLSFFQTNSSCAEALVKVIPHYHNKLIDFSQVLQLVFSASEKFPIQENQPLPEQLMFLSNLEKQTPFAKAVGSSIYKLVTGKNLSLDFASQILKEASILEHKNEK

| Molecule | method | sample | temperature | notes | with | binding |
| --- | --- | --- | --- | --- | --- | --- |
| B1 (BTK 1-171) | FCS | supported lipid bilayers |  |  | PIP3 | binds |
| B2 (TOP2 C180A/C731A/Q1135C) | FRET or BRET |  |  |  | ADP, ATP, ADPNP | binds |
| B3 (Gm4951 C235A) | mass photometry |  |  |  |  | binds |
| B4 (VANGL1 H340A/Y345A/E349A) | native gel or EMSA |  |  |  |  | binds |
| B5 (ddrC L131M/L184M) | X-ray crystallography |  | 20 °C | apo, homodimer in lattice |  | binds |
| B6 (Rela 19-304) | X-ray crystallography |  |  |  |  | binds |
| B7 (dlg1 1-97 Y18G) | SEC |  |  |  |  | binds |
| B8 (SPOP V51E) | negative-stain TEM |  |  |  |  | binds |
| B9 (HELLS 1-460) | SEC |  |  |  |  | binds |
| tas3 (Schizosaccharomyces pombe, UniProt O94687) | cross-linking |  |  |  |  | binds |
| B10 (SPOP M117V) | negative-stain TEM |  |  |  |  | binds |
| B11 (Transcriptional regulator) | X-ray crystallography |  |  |  |  | binds |
| B12 (NINJ1 x) | negative-stain EM |  |  |  |  | binds |
| B13 (ftsZ) | co-sedimentation |  |  |  |  | binds |
| bfr (Azotobacter vinelandii, UniProt P22759) | cryo-EM |  |  |  |  | binds |

Some of these lines once more:
| Molecule | method | sample | temperature | notes | with | binding |
| --- | --- | --- | --- | --- | --- | --- |
| B11 (Transcriptional regulator) | X-ray crystallography |  |  |  |  | binds |
| B5 (ddrC L131M/L184M) | X-ray crystallography |  | 20 °C | apo, homodimer in lattice |  | binds |
